Measured values collected from several papers.
A part holds a random share of what one study measured. Several values in a cell are separate wells, animals, samples, runs or records.
Sequence of UniProt P11802 (whole entry, looked up): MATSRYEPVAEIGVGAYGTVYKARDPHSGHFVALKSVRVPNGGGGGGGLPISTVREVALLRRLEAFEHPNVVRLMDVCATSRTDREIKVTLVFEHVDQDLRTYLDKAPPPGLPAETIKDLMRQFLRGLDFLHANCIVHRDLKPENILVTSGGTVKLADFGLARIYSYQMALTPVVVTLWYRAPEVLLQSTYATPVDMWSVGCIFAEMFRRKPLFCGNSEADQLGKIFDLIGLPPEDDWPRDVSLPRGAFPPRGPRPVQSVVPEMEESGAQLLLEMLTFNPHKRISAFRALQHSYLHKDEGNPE
Sequence of UniProt P49336 (whole entry, looked up): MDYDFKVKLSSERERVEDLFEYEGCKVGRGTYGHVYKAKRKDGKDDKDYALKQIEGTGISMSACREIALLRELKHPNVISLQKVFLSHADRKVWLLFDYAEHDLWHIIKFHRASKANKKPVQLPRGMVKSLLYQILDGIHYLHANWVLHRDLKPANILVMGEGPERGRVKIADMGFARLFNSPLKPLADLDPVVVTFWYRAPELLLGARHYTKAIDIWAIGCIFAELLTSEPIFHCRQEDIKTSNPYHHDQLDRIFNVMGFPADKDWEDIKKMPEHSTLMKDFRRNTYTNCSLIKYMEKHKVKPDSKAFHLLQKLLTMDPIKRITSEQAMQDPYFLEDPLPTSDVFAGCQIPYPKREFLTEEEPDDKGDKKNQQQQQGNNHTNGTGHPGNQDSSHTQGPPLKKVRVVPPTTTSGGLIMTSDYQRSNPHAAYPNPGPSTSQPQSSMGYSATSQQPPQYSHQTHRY
Sequence of UniProt P51955 (whole entry, looked up): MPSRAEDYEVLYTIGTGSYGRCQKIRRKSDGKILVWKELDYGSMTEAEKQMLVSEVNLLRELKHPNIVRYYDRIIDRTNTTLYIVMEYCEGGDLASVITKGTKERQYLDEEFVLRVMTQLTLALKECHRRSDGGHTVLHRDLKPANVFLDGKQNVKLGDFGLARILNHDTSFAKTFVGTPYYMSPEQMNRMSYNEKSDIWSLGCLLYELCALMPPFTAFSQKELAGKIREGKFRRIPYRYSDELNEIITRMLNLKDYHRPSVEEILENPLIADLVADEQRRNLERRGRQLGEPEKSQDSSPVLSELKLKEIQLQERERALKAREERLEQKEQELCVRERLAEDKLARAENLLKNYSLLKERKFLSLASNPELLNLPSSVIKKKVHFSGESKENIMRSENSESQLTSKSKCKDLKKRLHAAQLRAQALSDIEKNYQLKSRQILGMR
Sequence of UniProt P24723 (whole entry, looked up): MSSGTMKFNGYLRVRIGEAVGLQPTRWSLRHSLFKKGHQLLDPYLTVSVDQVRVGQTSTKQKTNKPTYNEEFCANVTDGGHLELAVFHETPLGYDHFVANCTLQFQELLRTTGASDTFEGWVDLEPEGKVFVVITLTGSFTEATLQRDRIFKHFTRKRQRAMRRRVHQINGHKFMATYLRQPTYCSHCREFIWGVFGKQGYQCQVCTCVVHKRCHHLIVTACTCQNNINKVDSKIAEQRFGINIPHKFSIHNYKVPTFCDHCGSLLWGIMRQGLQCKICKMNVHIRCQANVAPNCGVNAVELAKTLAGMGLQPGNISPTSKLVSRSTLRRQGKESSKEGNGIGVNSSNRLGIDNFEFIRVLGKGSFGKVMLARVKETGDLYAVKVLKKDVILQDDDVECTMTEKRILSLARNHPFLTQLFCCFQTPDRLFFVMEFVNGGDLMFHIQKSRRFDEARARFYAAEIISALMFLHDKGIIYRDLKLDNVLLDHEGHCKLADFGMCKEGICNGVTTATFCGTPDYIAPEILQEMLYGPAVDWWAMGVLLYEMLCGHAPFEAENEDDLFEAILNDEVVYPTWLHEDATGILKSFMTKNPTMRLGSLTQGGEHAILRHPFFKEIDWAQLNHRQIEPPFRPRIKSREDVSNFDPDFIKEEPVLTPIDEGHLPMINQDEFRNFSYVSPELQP
Sequence of UniProt P53778 (whole entry, looked up): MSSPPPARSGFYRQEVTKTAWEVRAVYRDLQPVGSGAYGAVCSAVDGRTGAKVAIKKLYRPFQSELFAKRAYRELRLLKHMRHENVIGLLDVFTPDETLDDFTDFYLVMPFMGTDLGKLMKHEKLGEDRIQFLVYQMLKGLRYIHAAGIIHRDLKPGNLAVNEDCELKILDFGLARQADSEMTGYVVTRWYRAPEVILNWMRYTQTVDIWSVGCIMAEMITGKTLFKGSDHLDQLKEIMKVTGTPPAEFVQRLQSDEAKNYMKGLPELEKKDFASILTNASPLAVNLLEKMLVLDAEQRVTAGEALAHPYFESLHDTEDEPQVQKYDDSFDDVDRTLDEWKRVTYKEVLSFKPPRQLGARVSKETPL
Sequence of UniProt Q9P289 (whole entry, looked up): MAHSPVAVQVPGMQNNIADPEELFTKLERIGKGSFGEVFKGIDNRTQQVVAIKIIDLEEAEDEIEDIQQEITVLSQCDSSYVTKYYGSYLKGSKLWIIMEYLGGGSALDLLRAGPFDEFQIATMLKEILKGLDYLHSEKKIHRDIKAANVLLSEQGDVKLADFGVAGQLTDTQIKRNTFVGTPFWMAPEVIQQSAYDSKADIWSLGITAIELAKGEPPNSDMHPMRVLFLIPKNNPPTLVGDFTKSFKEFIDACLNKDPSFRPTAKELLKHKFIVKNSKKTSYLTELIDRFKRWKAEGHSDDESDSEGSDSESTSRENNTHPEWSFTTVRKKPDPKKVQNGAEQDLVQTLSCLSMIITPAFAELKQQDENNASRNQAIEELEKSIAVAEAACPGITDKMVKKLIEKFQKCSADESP
Sequence of UniProt Q8TD19 (whole entry, looked up): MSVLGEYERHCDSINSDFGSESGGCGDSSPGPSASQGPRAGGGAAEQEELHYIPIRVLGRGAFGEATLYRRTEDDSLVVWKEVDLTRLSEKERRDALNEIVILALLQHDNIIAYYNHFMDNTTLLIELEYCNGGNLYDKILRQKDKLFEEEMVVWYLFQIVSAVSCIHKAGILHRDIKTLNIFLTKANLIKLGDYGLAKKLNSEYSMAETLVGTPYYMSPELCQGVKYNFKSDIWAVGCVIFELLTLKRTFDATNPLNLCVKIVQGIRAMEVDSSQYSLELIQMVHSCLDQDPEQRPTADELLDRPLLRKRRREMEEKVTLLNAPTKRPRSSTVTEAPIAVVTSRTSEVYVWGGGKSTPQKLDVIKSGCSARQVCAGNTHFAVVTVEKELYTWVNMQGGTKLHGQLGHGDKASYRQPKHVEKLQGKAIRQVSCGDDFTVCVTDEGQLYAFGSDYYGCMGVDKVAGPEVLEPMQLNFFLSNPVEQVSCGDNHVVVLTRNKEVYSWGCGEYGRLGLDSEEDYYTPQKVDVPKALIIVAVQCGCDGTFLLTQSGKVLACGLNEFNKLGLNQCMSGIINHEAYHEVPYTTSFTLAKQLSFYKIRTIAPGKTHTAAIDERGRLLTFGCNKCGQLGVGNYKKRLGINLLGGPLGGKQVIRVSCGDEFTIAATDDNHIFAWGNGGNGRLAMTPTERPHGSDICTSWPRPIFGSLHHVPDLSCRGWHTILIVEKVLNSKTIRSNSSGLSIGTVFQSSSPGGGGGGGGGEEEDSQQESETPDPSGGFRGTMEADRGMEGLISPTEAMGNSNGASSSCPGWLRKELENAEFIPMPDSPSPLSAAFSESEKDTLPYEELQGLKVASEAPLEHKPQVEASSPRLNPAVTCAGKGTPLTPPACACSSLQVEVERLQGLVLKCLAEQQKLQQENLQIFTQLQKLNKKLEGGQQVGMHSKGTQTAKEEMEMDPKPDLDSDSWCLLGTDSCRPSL
Sequence of UniProt P29320 (whole entry, looked up): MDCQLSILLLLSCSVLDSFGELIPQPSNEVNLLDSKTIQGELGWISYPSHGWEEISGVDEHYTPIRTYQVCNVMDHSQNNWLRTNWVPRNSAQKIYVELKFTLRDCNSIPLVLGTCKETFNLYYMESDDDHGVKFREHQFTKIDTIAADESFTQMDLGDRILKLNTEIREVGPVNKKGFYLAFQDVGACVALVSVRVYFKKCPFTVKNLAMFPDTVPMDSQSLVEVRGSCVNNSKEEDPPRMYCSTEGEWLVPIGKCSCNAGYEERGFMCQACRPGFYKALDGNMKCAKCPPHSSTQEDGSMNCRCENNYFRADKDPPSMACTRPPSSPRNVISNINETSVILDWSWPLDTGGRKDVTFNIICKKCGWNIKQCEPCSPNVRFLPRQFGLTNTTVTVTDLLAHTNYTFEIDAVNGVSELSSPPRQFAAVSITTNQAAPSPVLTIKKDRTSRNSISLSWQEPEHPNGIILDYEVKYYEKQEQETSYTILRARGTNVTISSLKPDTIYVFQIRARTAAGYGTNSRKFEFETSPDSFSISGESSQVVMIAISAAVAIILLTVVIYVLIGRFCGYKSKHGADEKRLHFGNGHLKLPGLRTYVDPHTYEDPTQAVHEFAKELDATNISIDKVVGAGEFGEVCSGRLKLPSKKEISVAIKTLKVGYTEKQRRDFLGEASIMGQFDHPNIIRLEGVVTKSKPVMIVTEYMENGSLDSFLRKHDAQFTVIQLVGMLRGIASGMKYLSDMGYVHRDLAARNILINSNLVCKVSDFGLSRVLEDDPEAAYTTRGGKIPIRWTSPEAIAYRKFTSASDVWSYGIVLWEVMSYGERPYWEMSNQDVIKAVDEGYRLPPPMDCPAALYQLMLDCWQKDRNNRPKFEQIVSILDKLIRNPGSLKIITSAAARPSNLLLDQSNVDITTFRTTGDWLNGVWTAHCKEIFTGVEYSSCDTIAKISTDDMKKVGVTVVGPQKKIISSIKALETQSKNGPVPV

Block 1 — read-out: enzyme activity; mode: inhibitor; tested at: 0.5 µM; relative to: control
SMILES: COc1cc(Nc2c(C#N)cnc3cc(OCCCN4CCN(C)CC4)c(OC)cc23)c(Cl)cc1Cl
For Serine/threonine-protein kinase Nek2 (NEK2, Homo sapiens, UniProt P51955): remaining activity read 8.56%.
The remaining activity was 97.1% (Cyclin-dependent kinase 4, with cyclin D1 (CDK4, Homo sapiens, UniProt P11802)).
The remaining activity was 98.1% (Serine/threonine-protein kinase STK11 (STK11, Homo sapiens, UniProt Q15831)).
Death-associated protein kinase 1 (DAPK1, Homo sapiens, UniProt P53355) — remaining activity: 106%.
It gave 99.2% for remaining activity (G protein-coupled receptor kinase 3 (GRK3, Homo sapiens, UniProt P35626)).

Block 2 — method: protein-binding microarray; molecule type: double-stranded DNA, one strand shown; matrix: in vitro; tested at: 940 nM top; notes: 60-bp whole probe; together with: salmon DNA 0.4 mg/ml; relative to: random background probes; direction: higher = stronger binding; all sequences stand within: GCCTAGCAC … GTCTTGATTCGCTTGACGCTGCTG
Target: Interferon regulatory factor 5, full length, phosphomimetic (IRF5, Homo sapiens, UniProt Q13568-2, residues 1-514, S451D/S453D/S456D/S462D)
`TTAGAACTGAGTATCGCTTAGTGCTAG`: “fitted relative affinity” 1.19 z-score.
`TGGGTGACTCTTACTCATTAGTGCTAG`: “fitted relative affinity” -0.0749 z-score.
For `TCAACTTTCTTTCAAATACTGTGCTAG`, “fitted relative affinity” read 1.69 z-score.
`TTAGATATCAGTATCGAATAGTGCTAG` — result for “fitted relative affinity”: 1.58 z-score.
For `TAAGGTTTCGACTTTCGGTTAGTGCTA`, “fitted relative affinity” read 7.19 z-score.
`GACGGGCTGGGGTTTCGGGACGTGCTA`: “fitted relative affinity” 1.75 z-score.
Under “fitted relative affinity”, `TTAGGACTGGGACTCGGTTAGTGCTAG` is recorded as -0.384 z-score.
`GACGGTTCCGGTTTCGCGACGTGCTAG` — result for “fitted relative affinity”: 3.89 z-score.

Block 3
SMILES: CCCCCCCCCCCCCCCCOP(=O)([O-])OCC[N+](C)(C)C
The inhibition was 7% (THP-1; 4 µM, cytotoxicity).
The inhibition was 101% (Leishmania donovani; high-content imaging; THP-1, MHOM/IN/80/DD8 intracellular amastigotes; 40 µM).
For Leishmania donovani; parasite growth, imaging; THP-1; 4 µM, intracellular, amastigote: inhibition read 76% and 94% and 84% and 96% and 65% and 87%.

Block 4 — method: RNA Bind-n-Seq; molecule type: RNA; matrix: in vitro; tested at: 200 nM; notes: whole 134-nt RNA, ends assumed; together with: 150 mM LiCl; relative to: input library; direction: higher = stronger binding; library: 7-deaza-guanosine replaces G
Target: Fragile X messenger ribonucleoprotein 1, C-terminal low-complexity region (Fmr1, Mus musculus, UniProt P35922)
`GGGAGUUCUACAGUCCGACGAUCAGUCCUGUGCUACACAUCGUAUGUACCGAAUCGGGAAAAAGGGGAAAAAGGAAAAAGGAAAGUAUUAUGUUACGCCGUUCGGAUCUGCACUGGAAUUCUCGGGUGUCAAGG` has a log2 enrichment of -0.769.
`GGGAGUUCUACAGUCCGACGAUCCAAGUCCUGUGCUACACAUCGUAUGUACCGAAUCGGUUUUUUUGGUGGAAAAAGGAAAGUAUUAUGUUACGCCGUUCGGAUCUGCACUUCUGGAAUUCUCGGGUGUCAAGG` has a log2 enrichment of -1.28.
With `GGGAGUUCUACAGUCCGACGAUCCCUGUGCUACACAUCGUAUGUACCGAAUCGGGGAAAAAGGGGUUUUUGGGGUUUUUGGGGAAAGUAUUAUGUUACGCCGUUCGGAUCUGCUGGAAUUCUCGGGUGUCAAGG` the log2 enrichment was -1.4.
With `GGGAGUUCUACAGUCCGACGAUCCUCAAGUCCUGUGCUACACAUCGUAUGUACCGAAUCGGCCGGGCCGGGGCCGGGAAAGUAUUAUGUUACGCCGUUCGGAUCUGCACUUCCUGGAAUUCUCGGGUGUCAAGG` the log2 enrichment was 0.491.
The log2 enrichment of `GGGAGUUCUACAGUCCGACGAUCAGUCCUGUGCUACACAUCGUAUGUACCGAAUCGGGUUUUGGGGUUUUGGGGUUUUGGGAAAGUAUUAUGUUACGCCGUUCGGAUCUGCACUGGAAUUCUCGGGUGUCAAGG` is reported as -0.92.
`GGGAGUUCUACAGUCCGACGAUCUCCUCAAGUCCUGUGCUACACAUCGUAUGUACCGAAUCGGAGGAGGGGAGGGAAAGUAUUAUGUUACGCCGUUCGGAUCUGCACUUCCAGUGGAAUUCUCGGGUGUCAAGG` gave a log2 enrichment of -1.46.
`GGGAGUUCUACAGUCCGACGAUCCACAAACAACACGCACCCACACAGACACAGAGGGAAGGGGUUGGGAUGGGGACAGGGUGCACAGCAGGGCGGGGUAGGACCCCAGCCCCUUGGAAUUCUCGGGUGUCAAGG` gave a log2 enrichment of 0.582.
For `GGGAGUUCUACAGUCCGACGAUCCCUGUGCUACACAUCGUAUGUACCGAAUCGGCCCCCCCGGGGCCCCCCCGGCCCCCCCGGAAAGUAUUAUGUUACGCCGUUCGGAUCUGCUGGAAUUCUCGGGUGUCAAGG`, the log2 enrichment was 0.962.

Block 5 — method: competition with immobilised ligand; tested at: 1 µM
SMILES: N#Cc1ccc(Nc2ccc3[nH]c(=O)[nH]c3c2)c(Cl)c1
For Serine/threonine-protein kinase NIM1 (NIM1K, Homo sapiens, UniProt Q8IY84); cell-free assay: remaining binding read 100%.
For Phosphorylase b kinase gamma catalytic chain, skeletal muscle/heart isoform (PHKG1, Homo sapiens, UniProt Q16816); cell-free assay: remaining binding read 100%.
For Cyclin-dependent kinase 4, with cyclin D1 (CDK4, Homo sapiens, UniProt P11802); cell-free assay: remaining binding read 86%.
It gave 89% for remaining binding (Serine/threonine-protein kinase RIO2 (RIOK2, Homo sapiens, UniProt Q9BVS4); cell-free assay).
The remaining binding was 97% (Protein kinase C eta type (PRKCH, Homo sapiens, UniProt P24723); cell-free assay).
The remaining binding was 100% (Ribosomal protein S6 kinase alpha-5, N-terminal kinase domain (RPS6KA5, Homo sapiens, UniProt O75582); cell-free assay).
It gave 100% for remaining binding (Mitogen-activated protein kinase 12 (MAPK12, Homo sapiens, UniProt P53778); cell-free assay).
It gave 89% for remaining binding (Tyrosine-protein kinase Fyn (FYN, Homo sapiens, UniProt P06241); cell-free assay).
It gave 86% for remaining binding (Ephrin type-A receptor 3 (EPHA3, Homo sapiens, UniProt P29320); cell-free assay).
For Serine/threonine-protein kinase 26 (STK26, Homo sapiens, UniProt Q9P289); cell-free assay: remaining binding read 96%.
The remaining binding was 89% (Tyrosine-protein kinase ABL1, non-phosphorylated (ABL1, Homo sapiens, UniProt P00519, Q252H); cell-free assay).
The remaining binding was 92% (Serine/threonine-protein kinase PAK 4 (PAK4, Homo sapiens, UniProt O96013); cell-free assay).
It gave 82% for remaining binding (Serine/threonine-protein kinase D1 (PRKD1, Homo sapiens, UniProt Q15139); cell-free assay).
For Serine/threonine-protein kinase MARK2 (MARK2, Homo sapiens, UniProt Q7KZI7); cell-free assay: remaining binding read 78%.
Serine/threonine-protein kinase pim-3 (PIM3, Homo sapiens, UniProt Q86V86); cell-free assay — remaining binding: 100%.
It gave 92% for remaining binding (Tyrosine-protein kinase ABL1, phosphorylated (ABL1, Homo sapiens, UniProt P00519, E255K); binding).
For Mitogen-activated protein kinase kinase kinase 10 (MAP3K10, Homo sapiens, UniProt Q02779); cell-free assay: remaining binding read 99%.
The remaining binding was 100% (Cyclin-dependent kinase 8 (CDK8, Homo sapiens, UniProt P49336); cell-free assay).
The remaining binding was 100% (Serine/threonine-protein kinase WNK2 (WNK2, Homo sapiens, UniProt Q9Y3S1); cell-free assay).
Serine/threonine-protein kinase Nek9 (NEK9, Homo sapiens, UniProt Q8TD19); cell-free assay — remaining binding: 96%.
TGF-beta receptor type-2 (TGFBR2, Homo sapiens, UniProt P37173); cell-free assay — remaining binding: 100%.
For Tyrosine-protein kinase JAK1, JH1 (JAK1, Homo sapiens, UniProt P23458); cell-free assay: remaining binding read 100%.
For RAC-gamma serine/threonine-protein kinase (AKT3, Homo sapiens, UniProt Q9Y243); cell-free assay: remaining binding read 69%.
The remaining binding was 100% (MAP/microtubule affinity-regulating kinase 3 (MARK3, Homo sapiens, UniProt P27448); cell-free assay).
The remaining binding was 100% (Tyrosine-protein kinase ITK/TSK (ITK, Homo sapiens, UniProt Q08881); cell-free assay).

Mixed results
The enzyme activity of `Cc1cccc(/C=N/Nc2cc(N3CCOCC3)nc(OCCc3ccccn3)n2)c1` is reported as 100% and 112% and 108% and 118% and 98.7% and 117% and 111% (L444P/L444P Gaucher fibroblasts; 4-MUG hydrolysis in lysate; 5 nM, 72 h; relative to: vehicle).
For `c1ccc2c(-c3nn4c(-c5ccncc5)nnc4s3)c[nH]c2c1`, the enzyme activity was 245% and 208% and 150% and 250% and 137% and 181% (alpha-galactosidase (human); healthy dermal fibroblasts; 0.5 µM, with ISRIB; relative to: DMSO without ISRIB).
`O=C(COc1ccc(Cl)cc1)NC1CCC(NC(=O)COc2ccc(Cl)cc2)CC1` (stereo not shown) gave an enzyme activity of 101% and 115% and 122% and 119% (alpha-galactosidase (human); healthy dermal fibroblasts; concentration not given; relative to: DMSO).
